Results collected from several papers.
A part holds a random share of what one study measured.

Study 1
Target: Histone acetyltransferase KAT6A, winged helix 2, GST fusion (KAT6A, Homo sapiens, UniProt Q92794, residues 85-181)
Technique: protein binding microarray
Molecule type: double-stranded DNA, one strand shown
Matrix: in vitro
Tested at: not given
Setting: 8-mer, flanks averaged, mean of 2 arrays, mostly near background
Baseline: not given
Direction: higher = stronger binding
Target sequence (chain): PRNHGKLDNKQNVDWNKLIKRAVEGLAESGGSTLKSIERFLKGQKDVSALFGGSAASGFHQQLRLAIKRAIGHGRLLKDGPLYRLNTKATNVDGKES
| Sequence | E-score |
| --- | --- |
| ATGATTTC | -0.0366 |
| AGAATCCG | 0.0599 |
| ACAGCCCT | -0.168 |
| GCGTGGGA | 0.172 |
| GATATCGC | 0.105 |
| GTAGTGAC | -0.0528 |
| ACGAAACA | 0.0574 |
| AGTGCGCC | 0.0557 |
| AGATCGCG | 0.122 |
| GCCGGCTA | 0.0851 |
| GGCGATAC | 0.03 |
| GGGCAACC | 0.152 |
| CAAACAGC | 0.0412 |
| CCTAGCCA | -0.0168 |
| GGGCTAGA | -0.0781 |
| GCATATCC | -0.0458 |
| ACCTCAAG | -0.00214 |
| CGTCGGCA | 0.0575 |
| GGTCATCA | -0.1 |

Study 2
Target: Sal-like protein 4, full length isoform B (SALL4, Homo sapiens, UniProt Q9UJQ4-2, residues 1-616)
Technique: universal PBM
Molecule type: double-stranded DNA, one strand shown
Matrix: in vitro
Tested at: not given
Setting: 8-mer, flanks averaged, mean of replicates
Direction: higher = stronger binding
| Sequence | E-score |
| --- | --- |
| GTCGCAAC | -0.0786 |
| AGGGGTGG | -0.274 |
| ACTGGAGG | -0.125 |
| AGTTTATG | 0.264 |
| GATAGGAC | -0.144 |
| ATACGGAT | 0.148 |
| ACGTCAGG | -0.117 |
| CGTCAGGA | -0.0809 |
| GCTGTGTA | 0.00572 |
| CCTGGCCC | -0.331 |
| ATAGTACA | 0.119 |
| ATGCGAGC | -0.163 |
| TCACTAGA | 0.118 |
| TCGTACCA | -0.00344 |
| CGTCGGGA | -0.142 |
| AAACTGAC | -0.116 |
| CCACCAGG | -0.346 |
| GACTAGAC | -0.00891 |
| GCACATTA | 0.189 |
| GCGTCCAA | -0.125 |

Study 3
Target: RNA binding protein fox-1 homolog 2, RRM domain, GST-SBP tag (RBFOX2, Homo sapiens, UniProt O43251-10, residues 100-194)
Technique: RNA Bind-n-Seq
Molecule type: RNA
Matrix: in vitro
Tested at: 365 nM
Setting: natural RNA segment, single round, ends assumed
Baseline: no-protein control
Direction: higher = stronger binding
Residues (chain): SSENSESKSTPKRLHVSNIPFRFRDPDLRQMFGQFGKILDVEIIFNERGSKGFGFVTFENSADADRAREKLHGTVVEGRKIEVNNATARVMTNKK
| Sequence | RBNS enrichment (R) |
| --- | --- |
| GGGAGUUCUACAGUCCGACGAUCCUUCCUUAUACCCAAACGCUGGUCGGUGGAAAUAGAAAGUCACCCCUCCCCCAUCGCCUCUUUCUCAUCCCUGAUUAACAGUGAAGUUUGAGUCUUGUCGUGAGUCCUACUGGAAUUCUCGGGUGCCAA | 0.347 |
| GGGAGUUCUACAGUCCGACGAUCGUUCCCAAUCAGCCAUUACCAUCUCCACCUGCCGCCAGCCACCAAAUCACCAGCAGGAGGGUCUGCCUGCCACUGGGAGCCUUGGGGAGGCUGGGAGCCUUAGAGAAACGUGGAAUUCUCGGGUGCCAA | 0.387 |
| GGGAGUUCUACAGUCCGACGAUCUAGUGUCUGUAUAUUUGUGAUGCAAUGGUCUUGUAAAGGUUUUUAAUGAAAACUACCAUUAGCCAGUCUUUCUUACUGACAAUAAAUUAUUAAUAAAAUACUUGAGCUUUUGGAAUUCUCGGGUGCCAA | 1.19 |
| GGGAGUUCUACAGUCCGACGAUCGAUUUUGAAUUCCAGAUUUCUUUAUAGGAGAUGUAUAAAAAGGAGUUUAUAGCAUACAAAAAUUAUACUGCUCUUCCCAGUAAGGGACUAAAAGGACAUUUGAAAUCUUUUGGAAUUCUCGGGUGCCAA | 0.904 |
| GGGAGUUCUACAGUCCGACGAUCGCCGUGAGUUUUCCAUUGGAAAGAAGUUCAGUGGUCCCAUUGUUAACUCAGCCUCAAAUCUCAACUGUCAGGCCCUACAAAGAAAAUGGAGAGCCUCUUCUGGUGGAUGCUGGAAUUCUCGGGUGCCAA | 0.251 |
| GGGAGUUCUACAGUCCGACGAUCAUCCUGGGCUCUCAUCUGAACCCCUCUUCUACCCACUUCUACUUGGAGGUGUCCUGUCUUUUUAAAAUCAGUGCCAAGUGUGUCAGCAGGGGGCAUGAACAAAAACCAGUUGGAAUUCUCGGGUGCCAA | 0.395 |
| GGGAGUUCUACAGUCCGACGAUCUUUAAGACUCUUAAACUCAAAACUCUGCACAAAGAUUUCAGUUUCAAAUGUGUAUUAUACAUGGGUAGAAAAGUGUUUGCACAGGCAACUUUUGGAAGUGUUUAAGAAUCUGGAAUUCUCGGGUGCCAA | 2.35 |
| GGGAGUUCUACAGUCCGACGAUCAGCUUCUGUUAACAUUAUAGAGACUCCUAGGAUGUGUGUUCAUGGCAUUAUAGCUUUUGAAGAAAGGCCAGUGAUCCAGCAAAGGGGGAAAAAUAUGCAUUUCACCCCACUGGAAUUCUCGGGUGCCAA | 0.933 |

Study 4
Target: RING finger protein unkempt homolog, zinc fingers 1-6, GST-SBP tag (UNK, Homo sapiens, UniProt Q9C0B0, residues 30-357)
Chain of UniProt Q9C0B0 (30-357, looked up): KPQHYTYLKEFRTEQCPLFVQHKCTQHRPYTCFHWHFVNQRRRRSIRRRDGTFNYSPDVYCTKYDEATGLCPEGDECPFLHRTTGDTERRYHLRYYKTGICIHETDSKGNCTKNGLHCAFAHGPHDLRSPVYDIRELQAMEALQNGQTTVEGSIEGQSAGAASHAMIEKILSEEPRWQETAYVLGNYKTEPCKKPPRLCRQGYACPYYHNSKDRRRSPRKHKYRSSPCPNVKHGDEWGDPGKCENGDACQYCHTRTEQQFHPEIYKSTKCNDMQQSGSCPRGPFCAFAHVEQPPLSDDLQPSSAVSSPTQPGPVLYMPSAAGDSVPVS
Technique: RNA Bind-n-Seq
Molecule type: RNA
Matrix: in vitro
Tested at: not given
Setting: RNA with constant flanks, ends assumed
Baseline: input RNA pool
Direction: higher = stronger binding
| Sequence | bound/input enrichment |
| --- | --- |
| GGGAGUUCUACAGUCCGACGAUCGGAAGUACAAUGAUGGAGAUUGAUGGUGACAAAGGCAAGCAGGGCGGGCCCACCUACUACACCGACACCAAUGCCCUCCGCGUGCCCAGGGAGAACAUGGAGGCCAUCUCACCACUCAAGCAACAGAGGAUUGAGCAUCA | 0.18 ratio |
| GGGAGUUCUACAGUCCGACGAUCGAGAAGAUUAUCUGUAAUUUAAAGCCGGCUUUAAAGCUUCGUCUUCGAUUCAUCACGCACAUCCGCAAGAUGGAGCCGGCAGUGCCACCCCAGGCCCUCAACAGCGGGUCUCCAGCACCUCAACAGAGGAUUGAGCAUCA | 0.144 ratio |
| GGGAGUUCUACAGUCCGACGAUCGUUUUUGGCUGCAAUUGCAUGAAAUCCCAAUGGUGUAGACCAGUGGCGAUGGAUCCCGGAGUUUACCAACUGAGACAUUUUUCAAUUUCUUUCUUGUCAUCCUUGCUGGGGACUGAAAACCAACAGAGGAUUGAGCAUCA | 0.244 ratio |
| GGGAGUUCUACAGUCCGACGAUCACCCCCUCUAGGAAGUUAUUUUAUGUAGCAUGUUUGCAUAUACGCAUUGUGUGGCAUGUGCACCGAGGCUUGUUUUACACCUAUCUGCUCAUUUUGUUGUGUUAGCUUUUCUGGUUUAUUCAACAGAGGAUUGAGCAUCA | 3.91 ratio |
| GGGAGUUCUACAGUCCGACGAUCUCUCUUGCUACUUGCCAGUUAUCUGAGCCAUUAUUGUGGUUCAUUUUGAGAGUAUUGGAUACCCGUGAUGCCUUGAAAGCAUUUCAUGAUAUGGGUGGUGUUCAGCUCAUAUGCAAUAAUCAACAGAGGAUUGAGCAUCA | 0.184 ratio |
| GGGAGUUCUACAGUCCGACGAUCUCUGACAGGAAUAUAGUACUGUACGAUAUGAGGCAAGCUACUCCUUUGAAAAAGGUUAUCUCCGAUAUGAGAACAAAUACAAUCUGUUGGAACCCUAUGGAAGCUUUCAUUUUUACAGCACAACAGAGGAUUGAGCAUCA | 0.224 ratio |
| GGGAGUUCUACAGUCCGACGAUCGAUCCACAGUGGUCUGAGGAGCAACUCAUUGCUGCAAAAUUCUGUUUUGCUGGCCUUGUUACCGGGCAGACUGAAGUGGACAUCAUGAGUCAUGCCACACAAGCUAUUUUUGAAAUUCUGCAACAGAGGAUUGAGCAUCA | 0.363 ratio |
| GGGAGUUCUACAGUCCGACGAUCGUUUUUAACGAUGGCAGUUCCAGGGAACUAAUGAACCUCACUGGAACAAUCCCUGUGCCUUACCGAGGUAAUACAUACAAUAUUCCAAUAUGCCUAUGGCUACUGGACACAUACCCAUAUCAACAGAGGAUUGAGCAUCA | 0.128 ratio |

Study 5
Target: Interferon regulatory factor 3, full length, phosphomimetic (IRF3, Homo sapiens, UniProt Q14653, residues 1-427, S386D/S396D/S398D/S402D/T404D/S405D)
Technique: protein-binding microarray
Molecule type: double-stranded DNA, one strand shown
Matrix: in vitro
Tested at: 2540 nM top
Setting: 60-bp whole probe
With: salmon DNA 0.4 mg/ml
Baseline: random background probes
Direction: higher = stronger binding
All sequences stand within: GCCTAGCAC … GTCTTGATTCGCTTGACGCTGCTG
Residues (chain): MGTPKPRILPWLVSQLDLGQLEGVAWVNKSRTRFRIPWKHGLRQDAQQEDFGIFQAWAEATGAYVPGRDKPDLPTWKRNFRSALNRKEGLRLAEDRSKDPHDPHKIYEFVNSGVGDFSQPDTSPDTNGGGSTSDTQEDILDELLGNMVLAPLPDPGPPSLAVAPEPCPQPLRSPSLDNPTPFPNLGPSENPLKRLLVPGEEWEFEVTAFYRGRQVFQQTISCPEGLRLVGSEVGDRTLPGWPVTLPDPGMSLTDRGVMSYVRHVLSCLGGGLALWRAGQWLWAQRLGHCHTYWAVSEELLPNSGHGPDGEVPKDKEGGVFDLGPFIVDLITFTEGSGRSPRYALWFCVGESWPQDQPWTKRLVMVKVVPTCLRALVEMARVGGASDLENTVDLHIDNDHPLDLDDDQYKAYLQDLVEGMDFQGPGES
| Sequence | fitted relative affinity |
| --- | --- |
| TCAAATAATCTTTTCACACTGTGCTAG | 0.52 z-score |
| TTAGTTATCCTTATCCTTTAGTGCTAG | 3.5 z-score |
| TTTTGAAGTTTGGCGTTGACGTGCTAG | 0.141 z-score |
| GACGATCTCCTTATCCTGACGTGCTAG | 1.69 z-score |
| AGTCTCTGCAGGGAGAGAGCGTGCTAG | -0.144 z-score |
| GACTGACTGGGTATCGGGACGTGCTAG | -0.247 z-score |
| TCACTTTTTTTTTTCCCACTGTGCTAG | 2.08 z-score |
| TCAGCTGTTTTTCTCACCACGTGCTAG | 0.939 z-score |
| GACCATATCAGTCTCGAGACGTGCTAG | 1.84 z-score |
| GTAGGTTTCGGTATCGGTTAGTGCTAG | 8.83 z-score |
| GACGATATCGGGTATGGAGACGTGCTA | 0.0414 z-score |
| TCATAATTCCTGCCTGAGACTGTGCTA | 0.255 z-score |
| GACGGATTGCTTCTCCTGACGTGCTAG | 0.643 z-score |
| TCATCTTTTCATTTTCTACTGTGCTAG | 2.41 z-score |
| CTTGCTTCCTAATTCTCTTTGTGCTAG | 1.11 z-score |
| TTAGTTTTCGGACTGGGTTAGTGCTAG | 2.73 z-score |
| GACGGTTTCCTTTCACTGACGTGCTAG | 9.37 z-score |

For quick reference, copied from above (study 3):
| Sequence | RBNS enrichment (R) |
| --- | --- |
| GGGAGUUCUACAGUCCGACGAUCGUUCCCAAUCAGCCAUUACCAUCUCCACCUGCCGCCAGCCACCAAAUCACCAGCAGGAGGGUCUGCCUGCCACUGGGAGCCUUGGGGAGGCUGGGAGCCUUAGAGAAACGUGGAAUUCUCGGGUGCCAA | 0.387 |
| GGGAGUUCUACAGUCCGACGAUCGCCGUGAGUUUUCCAUUGGAAAGAAGUUCAGUGGUCCCAUUGUUAACUCAGCCUCAAAUCUCAACUGUCAGGCCCUACAAAGAAAAUGGAGAGCCUCUUCUGGUGGAUGCUGGAAUUCUCGGGUGCCAA | 0.251 |
| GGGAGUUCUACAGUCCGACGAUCAGCUUCUGUUAACAUUAUAGAGACUCCUAGGAUGUGUGUUCAUGGCAUUAUAGCUUUUGAAGAAAGGCCAGUGAUCCAGCAAAGGGGGAAAAAUAUGCAUUUCACCCCACUGGAAUUCUCGGGUGCCAA | 0.933 |
| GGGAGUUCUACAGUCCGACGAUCUUUAAGACUCUUAAACUCAAAACUCUGCACAAAGAUUUCAGUUUCAAAUGUGUAUUAUACAUGGGUAGAAAAGUGUUUGCACAGGCAACUUUUGGAAGUGUUUAAGAAUCUGGAAUUCUCGGGUGCCAA | 2.35 |
| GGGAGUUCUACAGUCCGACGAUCUAGUGUCUGUAUAUUUGUGAUGCAAUGGUCUUGUAAAGGUUUUUAAUGAAAACUACCAUUAGCCAGUCUUUCUUACUGACAAUAAAUUAUUAAUAAAAUACUUGAGCUUUUGGAAUUCUCGGGUGCCAA | 1.19 |
| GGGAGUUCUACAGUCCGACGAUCAUCCUGGGCUCUCAUCUGAACCCCUCUUCUACCCACUUCUACUUGGAGGUGUCCUGUCUUUUUAAAAUCAGUGCCAAGUGUGUCAGCAGGGGGCAUGAACAAAAACCAGUUGGAAUUCUCGGGUGCCAA | 0.395 |
